Published values collected from several papers.
Each numbered part is a random draw from the data of one study; scales do not carry over between parts. Changes are numbered by the printed parent chain.

Block 1
Target: RNA binding protein fox-1 homolog 2, RRM domain, GST-SBP tag (RBFOX2, Homo sapiens, UniProt O43251-10, residues 100-194)
Method: RNA Bind-n-Seq
Form: RNA
Sample: in vitro
Concentration: 365 nM
Notes: natural RNA segment, single round, ends assumed
Relative to: no-protein control
Reading: higher = stronger binding
Target sequence (chain): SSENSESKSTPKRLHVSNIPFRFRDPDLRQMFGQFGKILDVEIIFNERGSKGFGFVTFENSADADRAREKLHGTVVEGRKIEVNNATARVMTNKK
Oligonucleotide | RBNS enrichment (R)
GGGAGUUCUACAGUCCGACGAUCGAUGUAAUGUAGUUCUUUGUUCCUGCUUUCUCUUUCAGUAUUAAACUCUCCUUUGAUAUUAUGUGGCUUUUAUUUCAGUGCCAUACAUGUUAUUGUUUUCAACCUAGAAAUGGAAUUCUCGGGUGCCAA | 0.847
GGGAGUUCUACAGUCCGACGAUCCCAUAUGGAGCCAGACAUUGGGACGCACGCAUGUGAUUGUGUGUGCACGCAUGUGUGUGUGUGCACGCACUGGGCUGGGCCAAGCGACUGAGGAUUCGCUUGGGAACGGGUGGAAUUCUCGGGUGCCAA | 3.96
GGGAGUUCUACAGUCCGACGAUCUAAUUGCCUACAGAGGGAUUUAUUUUUAUGAUGCUGGAAAUAUGAAAUGUAUUUUAAAAUUUCACUCUGGCAUAUGAUUUAUCUAUCACCAUUACUUUUUUUUAAGUCACUGGAAUUCUCGGGUGCCAA | 0.52
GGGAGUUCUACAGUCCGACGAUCUUUGUCUGAAUGUGAAAUAUCCCCCAUUUUAUCCCAUAAAUCAUUUGUUUUCCAAUGAUGUGUAUUUGGGGGGAAGGGAGGAUUGCUUGUAAUCUGGUGUUGAACAACUAUGGAAUUCUCGGGUGCCAA | 0.5
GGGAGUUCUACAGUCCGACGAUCUUUUGUGACAUAUUGUCAUGCUGAGGUGUGACACCUGCUGCACUCAUCUGAUGUAAAACCAUCCCAGAGCUGGCGAGAGGAUGGAGCUGGGUGGAAACUGCUUUGCACUAUGGAAUUCUCGGGUGCCAA | 0.455
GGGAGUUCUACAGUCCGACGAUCAUGCACAACUUGCUUGUACAGGUCAACUGUCCAUCUUGGGUACUAUUUAACUGUCAAACAGAGGAAUCUGUGUUUGUUACAAUAAUAUAACAGAUGCCUUGAAGGACCCGUGGAAUUCUCGGGUGCCAA | 0.153
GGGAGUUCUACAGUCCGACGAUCACAGACUCUUAAACUAACAAUUCAAGCAGGCGCCAAGUGCUAUGACAGAGGUGUGAAUAAAAGCAUCAGGAAAUCGGAUGGAGAACCACCAUUCACCCAAGGGUCAGAGGUGGAAUUCUCGGGUGCCAA | 0.344
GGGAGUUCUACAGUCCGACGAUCCACAGGGCAUGGAACCCUGAACCAGAAUGUCCCUGCAGUGCCGGAGAGGUCGCCGUGGGAAAACAGCACAACAGCACCUCUUGUGUGUGUACUUUCUACCCCCGCCCCCAUGGAAUUCUCGGGUGCCAA | 1.41
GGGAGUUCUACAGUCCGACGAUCCCUCACCCAGAUUGAAACUCUCUUCAAGUCUAAGGACUAUGAGUUCAUGUGGAACCCUCACCUGGGCUACAUCCUCACCUGCCCAUCCAACCUGGGCACCGGGCUGCGGGUGGAAUUCUCGGGUGCCAA | 0.324
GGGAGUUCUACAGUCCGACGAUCAUCCAUGUACUUGUUUGCAAGCAGGACUUUGAGGCAAGUGUGGGCCACUGUGGUGGCAGUGGAGGUGGGGUGUUUGGGAGGCUGCGUGCCAGUCAAGAAGAAAAAGGUUUUGGAAUUCUCGGGUGCCAA | 0.692
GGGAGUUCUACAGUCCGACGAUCGUGUUUUUGUUAACUACCCUACAGAUAUUGAAUGCACCUUGAGAUAAUUUAGUGUUUUUAACUGAUACAUAAUUUAUCAAGCAGUACAUGAAAGUGUAAUAAUAAAAUGUUGGAAUUCUCGGGUGCCAA | 0.538
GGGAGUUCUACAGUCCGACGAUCGCUUGAAAAUUGAUAUCCUGUGGUGCUAAAGUACAGUAGAAAGAGAGGAGAAGUGUAUACAUGUUUUAUUUUAAAUUGUACGAAAGGGGAAUUUAAAAAAUAUGUAACUGUGGAAUUCUCGGGUGCCAA | 0.471

Block 2
Target: CCNB2, cyclin fold, Cln2 fusion (human)
Method: yeast growth competition, sequencing
Sample: yeast
Notes: weak parent motif
Relative to: not given
Reading: higher = stronger binding
Starting sequence: PKN2 docking peptide (human); VSAVRKLDFSDTM
Substitution | normalised enrichment score
VCAVRKLDFSDTM [S2C] | 0.53
VSAVRKQDFSDTM [L7Q] | 0.0294
VSAVRKLDVSDTM [F9V] | 0.21
VSAVRDLDFSDTM [K6D] | -0.442
VSAERKLDFSDTM [V4E] | -0.335
VSAVRKLDFADTM [S10A] | 0.663
VSAVRKLPFSDTM [D8P] | 0.132
VSAVRPLDFSDTM [K6P] | -1.45
VSAVRKLDFSDQM [T12Q] | 0.599
VSAVRKLDFWDTM [S10W] | 0.174
VSAVRKLQFSDTM [D8Q] | 0.0263
VSAVRKSDFSDTM [L7S] | 0.331
VSAFRKLDFSDTM [V4F] | -0.041
VSAVRKNDFSDTM [L7N] | 0.342
VSAVRWLDFSDTM [K6W] | 0.165

Block 3
Target: Ras GTPase-activating protein-binding protein 1, C-terminal RGG region (G3BP1, Homo sapiens, UniProt Q13283)
Sequence of UniProt Q13283 (whole entry, looked up): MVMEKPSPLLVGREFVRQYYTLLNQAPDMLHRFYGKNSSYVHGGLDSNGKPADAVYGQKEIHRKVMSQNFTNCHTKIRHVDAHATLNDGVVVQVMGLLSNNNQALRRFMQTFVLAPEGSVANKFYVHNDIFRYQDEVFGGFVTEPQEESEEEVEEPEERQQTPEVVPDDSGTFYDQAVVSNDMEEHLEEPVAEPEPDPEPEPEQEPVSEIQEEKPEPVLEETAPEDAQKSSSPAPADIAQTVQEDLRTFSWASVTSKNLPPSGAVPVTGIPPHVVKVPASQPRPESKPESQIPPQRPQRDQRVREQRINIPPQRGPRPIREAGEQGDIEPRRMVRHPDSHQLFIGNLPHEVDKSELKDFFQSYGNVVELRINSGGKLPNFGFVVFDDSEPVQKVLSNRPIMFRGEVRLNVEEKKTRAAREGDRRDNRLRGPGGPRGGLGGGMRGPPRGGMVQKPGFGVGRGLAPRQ
Method: RNA Bind-n-Seq
Form: RNA
Sample: in vitro
Concentration: 1 µM
Notes: whole 134-nt RNA, ends assumed
Added: 150 mM KCl
Relative to: input library
Reading: higher = stronger binding
Oligonucleotide | log2 enrichment
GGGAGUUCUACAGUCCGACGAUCCCUGUGCUACACAUCGUAUGUACCGAAUCGGCCCCCCCGGGCCCCCCCGGGCCCCCCCGGAAAGUAUUAUGUUACGCCGUUCGGAUCUGCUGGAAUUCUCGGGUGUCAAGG | -1.52
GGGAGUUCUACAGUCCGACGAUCUGGCCCUGGUGGCAUGCGGGGAGGAAGAGGUGGCCUCAUGGAUCGUGGUGGUCCCGGUGGAAUGUUCCGAGGUGGCCGUGGUGGAGACAGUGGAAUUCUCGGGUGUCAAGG | 3.84
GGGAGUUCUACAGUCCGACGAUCGUCCUGUGCUACACAUCGUAUGUACCGAAUCGGGGUGGGGUUUGGGGAAAAAAAGGGGAAAGUAUUAUGUUACGCCGUUCGGAUCUGCACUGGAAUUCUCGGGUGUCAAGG | 0.857
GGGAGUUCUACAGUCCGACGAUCUAACUUUAGAGGAGGAUCUGAUGGAUAAGGCAGUGGACGUGGAUUUGGGGAUGGCUAUAAUGGGUAUGGAGGAGGACCUGGAGGUGGCAAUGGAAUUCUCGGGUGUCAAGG | -1
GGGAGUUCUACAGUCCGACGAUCGCCAUGCAGGUGGGCAUCUUUGGGAAGUGGGGCAAGGGGGGGAUAGGGAGGGGGGUAACACUUUGGGAACAGGUGGUCCCAGGUCGUUUCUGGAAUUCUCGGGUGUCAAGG | -1.16
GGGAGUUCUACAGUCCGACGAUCUCCUGUGCUACACAUCGUAUGUACCGAAUCGGGCCCCCCGGCCCCCCGGGGCCCCCCGGAAAGUAUUAUGUUACGCCGUUCGGAUCUGCAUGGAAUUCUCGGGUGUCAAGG | -0.532
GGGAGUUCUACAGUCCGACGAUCUAACUUUAGAGGAGGAUCUUAUGGAUAUGGCAGUGGACGUGGAUUUGGGGAUGGCUAUAAUGGGUAUGGAGGAGGACCUGGAGGUGGCAAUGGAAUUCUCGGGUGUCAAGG | -1.21
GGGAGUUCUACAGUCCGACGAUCUGGGAGGUGGAUUUUGUUUAUUUUUUUAGCUCAUUUCCAGGGGUGGGAAUUUUUUUUUAAUAUGUGUCAUGAAUAAAGUUGUCUUUGAAAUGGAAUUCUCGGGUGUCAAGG | 3.79
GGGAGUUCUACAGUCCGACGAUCUGGGAGGUGGAGUUUGUUUAUUUUUUUAGCUCAUUUCCAGGGGUGGGAAUUUUUUUUUAAUAUGUGUCAUGAAUAAAGUUGUUUUUGAAAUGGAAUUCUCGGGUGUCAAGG | 3.6
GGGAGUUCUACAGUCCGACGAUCUCCUGUGCUACACAUCGUAUGUACCGAAUCGGGGAAAGGGGAAAAAGGGGAAAAAGGGGAAAGUAUUAUGUUACGCCGUUCGGAUCUGCAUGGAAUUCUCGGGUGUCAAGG | 1.84
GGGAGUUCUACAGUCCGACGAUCUGGAUUUUCAAGACACGAAUGCUCGGAGUCUGGCAGAAAGGAAGAGAGAAGAGGAGAAGCAGAAGCACUUGGAUAAAAUUUAUCAAGAAAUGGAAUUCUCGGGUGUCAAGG | -1.85
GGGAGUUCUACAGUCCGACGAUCCUCAAGUCCUGUGCUACACAUCGUAUGUACCGAAUCGGUUGGGGUUGGGUUGGAAAGUAUUAUGUUACGCCGUUCGGAUCUGCACUUCCAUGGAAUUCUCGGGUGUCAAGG | -0.676
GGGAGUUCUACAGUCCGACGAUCAGUCCUGUGCUACACAUCGUAUGUACCGAAUCGGGAAAAAGGAAAAAGGGAAAAAGGGAAAGUAUUAUGUUACGCCGUUCGGAUCUGCACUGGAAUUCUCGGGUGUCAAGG | -1.8
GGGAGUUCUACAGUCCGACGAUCGCAGGAAGUAAAAACAAAUGGAAAUGCUUCGGAUAGUGGCAGGGGUGGGGGUUGCUAAGGAAAGGGUGGGAUCGGAGUGGGUAAAGAGUUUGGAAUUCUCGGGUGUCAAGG | 1.71

Other studies, line by line
Substance | target | assay | system | conditions | scale | measurement | value
PhoQ, residues 284 288 289 292 302 303 TGYLSA | PhoP, residues 12 14 15 18 19 IQFRS (Escherichia coli, UniProt P23836) | Sort-seq, item: YFP reporter | E. coli | PhoQ-PhoP variant library, added: 10 µM Mg2+ | relative to: high Mg2+ state, higher = stronger signaling | fold induction | 8.78

For quick reference, copied from above (block 3):
Oligonucleotide | log2 enrichment
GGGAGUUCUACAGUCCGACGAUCGUCCUGUGCUACACAUCGUAUGUACCGAAUCGGGGUGGGGUUUGGGGAAAAAAAGGGGAAAGUAUUAUGUUACGCCGUUCGGAUCUGCACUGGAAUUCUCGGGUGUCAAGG | 0.857
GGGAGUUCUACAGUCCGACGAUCUAACUUUAGAGGAGGAUCUGAUGGAUAAGGCAGUGGACGUGGAUUUGGGGAUGGCUAUAAUGGGUAUGGAGGAGGACCUGGAGGUGGCAAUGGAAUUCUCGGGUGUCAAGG | -1
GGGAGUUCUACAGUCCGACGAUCGCCAUGCAGGUGGGCAUCUUUGGGAAGUGGGGCAAGGGGGGGAUAGGGAGGGGGGUAACACUUUGGGAACAGGUGGUCCCAGGUCGUUUCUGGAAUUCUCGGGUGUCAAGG | -1.16
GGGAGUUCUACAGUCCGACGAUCUCCUGUGCUACACAUCGUAUGUACCGAAUCGGGCCCCCCGGCCCCCCGGGGCCCCCCGGAAAGUAUUAUGUUACGCCGUUCGGAUCUGCAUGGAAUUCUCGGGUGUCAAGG | -0.532
